Experimental data from different studies.
Numbered parts are unrelated; each lists some results of a single study.

Block 1 — technique: protein binding microarray; molecule type: double-stranded DNA, one strand shown; medium: in vitro; tested at: not given; relative to: not given; direction: higher = stronger binding
Target: Histone acetyltransferase KAT6A, both winged helices, GST fusion (KAT6A, Homo sapiens, UniProt Q92794, residues 1-181)
Setting: 8-mer, flanks averaged, mean of 2 arrays, mostly near background
Residues (chain): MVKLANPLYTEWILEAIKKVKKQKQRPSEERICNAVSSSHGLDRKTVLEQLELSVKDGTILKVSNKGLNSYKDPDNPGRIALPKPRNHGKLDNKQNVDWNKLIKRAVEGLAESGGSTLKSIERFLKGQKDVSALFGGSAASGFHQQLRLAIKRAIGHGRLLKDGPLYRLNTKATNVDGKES
| Strand | E-score |
| --- | --- |
| AGACACTA | -0.0396 |
| CGCGCCCG | 0.382 |
| CCTCGTCC | -0.149 |
| ACCCACTC | -0.109 |
| AGGTTTCA | -0.12 |
| AATTCGCA | 0.0395 |
| ACGCTAGG | -0.0558 |
| CGCGGAAC | 0.322 |
| ATGGGAGG | -0.105 |
| CTCGTCCA | -0.0243 |
| AACGACTC | -0.18 |
| CCCTGCCG | 0.166 |
| CCGGCGGA | 0.341 |
| ATCCGCCC | 0.153 |
| AGTGAGTC | -0.113 |
| TCCGTTCA | 0.164 |
| CACGATGG | -0.0685 |
| GATTATAA | 0.0195 |
| ACCGGGCA | 0.202 |
| ATGGCGTG | -0.0395 |
| TGTCTAAA | 0.028 |
| AGCAGCCG | 0.104 |
| CGACAGAG | 0.0488 |
| ATTACCAA | -0.0275 |
| CAGCCTCG | -0.093 |

Block 2 — technique: RNA Bind-n-Seq; molecule type: RNA; medium: in vitro; tested at: 365 nM; relative to: no-protein control; direction: higher = stronger binding
Target: RNA binding protein fox-1 homolog 2, RRM domain, GST-SBP tag (RBFOX2, Homo sapiens, UniProt O43251-10, residues 100-194)
Setting: natural RNA segment, single round, ends assumed
Constant ends, left off below: GGGAGUUCUACAGUCCGACGAUC … UGGAAUUCUCGGGUGCCAA
Construct (chain): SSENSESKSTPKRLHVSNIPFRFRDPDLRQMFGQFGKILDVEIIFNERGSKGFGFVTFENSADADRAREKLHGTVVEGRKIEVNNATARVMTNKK
| Strand | RBNS enrichment (R) |
| --- | --- |
| CUUCUGAGCUUGGAUUAGAGAAAGCUCUUAACUCCAGCCACUGUCAGAGGGAGUGUGGAGGGAGGGACCCGGCCUCUCUGUUGUCAAAUUGAGGCCUCCAUGUGGGAAGU | 0.618 |
| UCCAAUGUGAGCUUUUCGUUCUUAUACAUUUAAUUUCGGGUGAUGUUGGCCAGAGGUAUCUGGGAGAACCUACCCUUUCUAGGAGUGGCUCCUGCCUGACUCUUCCUUCG | 0.22 |
| GAACAAAAACCAAUAAAAGAAUAUACUCUUUUCAUUGACUAUAGUAUUAUGUGAAUGCUACAUUUGUUCUGAACACUUAGGGGCUGCAAAAAUGUAAUAAGAAAUGCAUA | 0.552 |
| UCAAGAACAUGUCAAAGGAGUGAGCAGGGCAGUAGCCCUGUAGGUUGCAUGGGUGUGUGUCGCUGUGCAGGCCUGCCUGGGCUACCAUCUCCACUCCCCAUGUCUCUGAG | 0.826 |
| GAUUAAGGGCCUGGCCCCCAGGGUUGUCCAGCUCCAUAAGGUGGAGCUGGGCAAGAUUUUGGGUUUGCUGCUCCCUGAAGCUGGAUUCUUUCAUACGAUACUCUUUCUCA | 0.335 |
| UCAGAUUGUGUAUAUGAAAACAUUAGCAAGUCUUGUUUUUUCUAUGAAGCAAACACAAUUGGUGACAAAGGUUGUCAAUCAUUUCUUCAAAAUUAUAAUGCAGUUCUAAU | 0.58 |
| AGAUAAUAAUUAGAUAAUACUAUGUAAUUAAUUUUACUCAGUAGAUUAUCAUCUUAAGAGAUGCUUAAACAUGGUAAAUCACUUCAUAUUAUGAAAGUUUUACACUUAGU | 0.391 |
| UAUUAGCACACCUUGGUUUUGAGAAAAAAACAGGGCUUUGUUUUUUUAAAUAAUUACUAGCAACUCUGUGACUACAUUUAUUUUUAUUUUUUUUAGAGACAGGAUCUUGC | 0.566 |

Block 3 — technique: aptamer microarray, sandwich; molecule type: DNA with 2'F-ANA; medium: in vitro; tested at: 200 nM; with: Cy3 exosite-II aptamer, 400 nM; direction: higher = stronger binding; strand: GGTTGGTGTGGTTGG
Target: Prothrombin, mature alpha-thrombin (F2, Homo sapiens, UniProt P00734)
Setting: whole 15-mer aptamer, many near background
| Modification | mean fluorescence intensity [a.u.] |
| --- | --- |
| 2'F-ANA at 2 5 6 7 8 9 12 13 | 117 |
| 2'F-ANA at 3 4 6 8 9 11 12 | 652 |
| 2'F-ANA at 1 2 3 5 6 8 9 10 12 14 15 | 49.1 |
| 2'F-ANA at 3 8 9 12 13 14 | 686 |
| 2'F-ANA at 1 6 11 12 13 | 262 |
| 2'F-ANA at 3 4 8 11 14 | 356 |
| 2'F-ANA at 1 3 4 5 6 7 | 65.2 |
| 2'F-ANA at 2 3 5 8 12 13 | 199 |
| 2'F-ANA at 3 4 7 9 11 14 15 | 309 |
| 2'F-ANA at 1 3 5 7 9 10 13 15 | 52.9 |
| 2'F-ANA at 2 9 11 12 14 | 172 |
| 2'F-ANA at 1 2 4 7 8 11 12 | 280 |
| 2'F-ANA at 2 4 6 8 10 11 12 14 15 | 63.2 |
| 2'F-ANA at 2 3 4 6 7 9 11 14 15 | 177 |
| 2'F-ANA at 2 4 5 6 7 8 13 | 68.3 |
| 2'F-ANA at 4 9 10 11 12 13 | 98.4 |
| 2'F-ANA at 1 5 6 7 8 9 11 13 14 15 | 50.9 |
| 2'F-ANA at 2 3 5 6 8 10 11 13 15 | 56.9 |
| 2'F-ANA at 2 3 7 8 10 11 13 14 | 301 |
| 2'F-ANA at 1 3 6 8 10 11 14 | 62.6 |
| 2'F-ANA at 1 2 3 7 11 12 13 14 | 91 |

Block 4 — technique: RNA Bind-n-Seq; molecule type: RNA; medium: in vitro; tested at: 100 nM; relative to: input RNA pool; direction: higher = stronger binding
Target: RING finger protein unkempt homolog, zinc fingers 1-6, SBP tag (UNK, Homo sapiens, UniProt Q9C0B0, residues 30-357)
UniProt Q9C0B0, sequence (30-357, looked up): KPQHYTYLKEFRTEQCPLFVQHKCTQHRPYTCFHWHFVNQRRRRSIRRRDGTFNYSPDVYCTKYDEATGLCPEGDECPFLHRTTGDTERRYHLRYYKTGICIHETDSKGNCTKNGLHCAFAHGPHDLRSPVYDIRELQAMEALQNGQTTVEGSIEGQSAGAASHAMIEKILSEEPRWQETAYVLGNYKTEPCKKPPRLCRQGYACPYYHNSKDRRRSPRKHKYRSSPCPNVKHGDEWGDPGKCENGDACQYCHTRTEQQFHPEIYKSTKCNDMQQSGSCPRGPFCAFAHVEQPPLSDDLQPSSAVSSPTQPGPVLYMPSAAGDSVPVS
Setting: RNA with constant flanks, vertebrate orthologous sites, ends assumed
Constant ends, left off below: GGGAGUUCUACAGUCCGACGAUC … CAACAGAGGAUUGAGCAUCA
| Strand | bound/input enrichment |
| --- | --- |
| AAAACCCCGGUUUUAGAUGUGAUAUUUAGGCUUUCAUUCCAGUUUGUUUUGUCUUUUGUUUAGAUACCAAUCUUUUAAAUUCUUGCAUUUUAGUAAGAAAGCUACCUUUUUAUGGAUGUU | 0.751 ratio |
| CACGUCUGCAUAACUCCAGACCCUUCCUUCUCGCCCUUUGACCCCUCAUGCAUUUAACCAUAUUCACACGUCCACUUUUAUAAAUAGCAGGAUAAAUGCAAAGGAGCUCCCUGGGGCAUU | 0.509 ratio |
| UCAGUCCCCUGGGCGGACGGAUUUUUUUUUUAGUGUCUUGAAAUUUAAACUCUGUGCUUGUAGGAGACUGUAACCUUUUUGUCUUUUUUUUUUUAAACAAAAACCUCCACCUCCAGUGGC | 1.23 ratio |
| GUAAUGCAUUUUGUGACUUGGAUGUGGUCUGCGCGGGAAGCUGCUGGCCCCUCCACAACAUAUAAAAUUUUUGUCUUUUUUUAAGAAGUUAAAACUGAAUUUAAUUUACUAAAACUGUAA | 0.281 ratio |
| CACAUCUGGUGAUAUUUGGCCUGGUCUUUCAGCUUAUGAUAAUAGUCCCAGGUCGCCCCAUAGUCCCUCACCGAUUGCCACACCACCCAGUCAGAGUUCAUCUUGCUCUGAUGCCCCUAU | 0.444 ratio |
| GUGUUGGUGCAGAGUGCUCUGUGCCAGUUGCUCAUGAUCCCUUUUUCAUACCAACAGCCCUAGUUACAGGAAUUUAAUAUUUUUAAAAAUUUACAUUGCUGUAUAUUCAAAGAUUUGUUU | 0.33 ratio |
| UAAUGUGUUUUUAUUUAUCGAGGAUAGUUUUGUGCUAAAGACCGUGUUAGAUUUAAACAUUAGUGGAUUUAAUUCCUCUUUGUUGUGUUGCUUUCAUUAUUGAAAAUAAAUAGAACUUUG | 0.322 ratio |
| ACACUUAUAUUGUGGCAUAUAGUCAACAUGGAAGUAGACCAGGUCUGCUGAUUUGAAAUUUAGAUUUUUUUAAUUAUGUACUGGGGACAGGUUUUUGUCGCUUUACAUUGCUUCCUAGUU | 4.29 ratio |
